Experimental data of several laboratories.
Numbered parts are unrelated; each lists some results of a single study.

Study 1
Target: Prothrombin, mature alpha-thrombin (F2, Homo sapiens, UniProt P00734)
Method: aptamer microarray, sandwich
Form: DNA with 2'F-ANA
Matrix: in vitro
Tested at: 200 nM
Notes: whole 15-mer aptamer, many near background
Added: Cy3 exosite-II aptamer, 400 nM
Direction: higher = stronger binding
Sequence: GGTTGGTGTGGTTGG
Modification	mean fluorescence intensity [a.u.]
2'F-ANA at 1 2 3 4 5 7 11 13	46.6
2'F-ANA at 1 2 3 5 6 10 12 13 14	51.6
2'F-ANA at 1 2 4 5 7 8 9 10 11 13	62.1
2'F-ANA at 1 2 3 5 7 9 10 11 12 13 14	59
2'F-ANA at 3 4 5 6 8 9 10	51
2'F-ANA at 1 2 5 9 13 15	48
2'F-ANA at 4 5 6 8 9 11 12 13 14	47.5
2'F-ANA at 5 10 11 12 13 14	48.9
2'F-ANA at 4 10 14	65.8
2'F-ANA at 1 2 4 6 8 9 10 13 15	59.7
2'F-ANA at 2 3 5 9 11 13 14	51.4
2'F-ANA at 1 6 7 8 9 10 12 13 14	53.5
2'F-ANA at 2 3 4 5 6 7 9 11 13	55.9
2'F-ANA at 5 6 7 8 10 12	49.7
2'F-ANA at 1 11 13 14	53.9
2'F-ANA at 1 2 4 5 6 8 9 10 12 15	54
2'F-ANA at 1 2 3 5 10 12 13 14 15	51
2'F-ANA at 2 3 4 5 7 10 11 14	45.4
2'F-ANA at 1 2 8 9 12 14	70.2
2'F-ANA at 1 2 4 5 8 10 12	47.2
2'F-ANA at 1 6 7 8 11 13 14 15	58.4
2'F-ANA at 2 3 4 5 6 7 9 10 11 15	51.2

Study 2
Target: RING finger protein unkempt homolog, zinc fingers 1-6, GST-SBP tag (UNK, Homo sapiens, UniProt Q9C0B0, residues 30-357)
Method: RNA Bind-n-Seq
Form: RNA
Matrix: in vitro
Tested at: not given
Notes: RNA with constant flanks, human-mouse chimeric sites, ends assumed
Baseline: input RNA pool
Direction: higher = stronger binding
All sequences stand within: GGGAGUUCUACAGUCCGACGAUC … CAACAGAGGAUUGAGCAUCA
Construct (chain): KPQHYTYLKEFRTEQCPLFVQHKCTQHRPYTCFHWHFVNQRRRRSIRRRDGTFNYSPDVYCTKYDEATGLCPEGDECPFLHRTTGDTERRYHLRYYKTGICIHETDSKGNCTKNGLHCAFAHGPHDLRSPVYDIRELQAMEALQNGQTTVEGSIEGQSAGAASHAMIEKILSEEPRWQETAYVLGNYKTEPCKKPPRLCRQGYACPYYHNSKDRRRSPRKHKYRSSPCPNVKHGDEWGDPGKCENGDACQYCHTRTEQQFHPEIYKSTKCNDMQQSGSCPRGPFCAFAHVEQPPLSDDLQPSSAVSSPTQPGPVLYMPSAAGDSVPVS
Sequence	bound/input enrichment
UCAAGGGGGCACUGCAGAGCCAUGCCUUUCCUUGACAUACAGAAAAAGCUGGGCAUCAGCCUGGACCGGCACUUUAUGUUCCUAAGCGCAGAACAGCCCUAUAAGAACGCCGCUCGGUGC	0.0795 ratio
CAGUCCCGCGACAGCGUUGCAGGACGAUGUGAACAAAUCGAAGACAUGGACCCUCUAUUGUAGUUCUUGAUUCUCGAAAUGUGCUAUUAUUGUUUGUCUUUUUUUUUUUUUUUUUAAAGA	1.51 ratio
UACUACUAUGAUGGUGAUAUUGGCAAUUAUUAUUAUGGACAGGGUCAUCCCAUGAAGCCUCAUAGAAUCCGGAUGACUCAUAACUUGCUGCUAAAUUAUGGUUUAUACCGAAAAAUGGAA	0.275 ratio
AUUCCGAUUAUGGACACCGGUGAAAACCCAGAGGUGCCCUUCCCCCGGGACAUGAUUGACUUAGAGGCCAAUUUCGAGAAGAUUGAAAAUGAACUGAAGGAAAUCAACACAAACCAGGAA	0.0787 ratio
UUAAUCCCCUUCGUUGCUCCACCACUGCUCAUGGUAAUAACAAAGUCUUAUAUCCCCGUCCUAGCUUUCACUCAGAUGGCUUAUGGAGCCGGUUUCCUAGCUUUCUUGGGAGGGAUCAGA	0.375 ratio
UUGAAAACUGAUUCAAGUAAGUUUGAGUAUCACAAUGUUAGCUUUCUAAUUCCACACAAGUACUUGGUUUUUACAGUUUAUAAUCUGCAAUCCAUCAAGCGCCAUUUGUAAAGAGCAACU	0.316 ratio
CACAGAGCAGCACCUACCCCCUCCUCCUUUCCACACCUGCAAACUCUUUUACUUGGGCUGCAUAGUUAGUGUAAUUACAUCUCAGCUUUGAGGGCUCCCUGUGGCAAUUCCCGGAUUAAA	3.68 ratio
GCUCCUCUUCCGCACUCAGCCUGGGGACACUGGGCUGGGACCAGAAUCCAGCUUUCUUUUAAAACUCUAUAUUUUUUUGUAUCCCGUGACAUUUCAUUUUUUUUAAAUAGUGUAUUUUUU	13.9 ratio

Study 3
Target: Histone acetyltransferase KAT6A, both winged helices, GST fusion (KAT6A, Homo sapiens, UniProt Q92794, residues 1-181)
Method: protein binding microarray
Form: double-stranded DNA, one strand shown
Matrix: in vitro
Tested at: not given
Notes: 8-mer, flanks averaged, mean of 2 arrays, mostly near background
Baseline: not given
Direction: higher = stronger binding
Construct (chain): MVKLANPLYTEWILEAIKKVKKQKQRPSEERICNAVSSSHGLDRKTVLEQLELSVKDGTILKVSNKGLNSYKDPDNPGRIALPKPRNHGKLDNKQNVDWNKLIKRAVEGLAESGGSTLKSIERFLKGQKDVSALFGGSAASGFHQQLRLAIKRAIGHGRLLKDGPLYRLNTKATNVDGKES
Sequence	E-score
AATTTCCG	0.157
GCAAATTA	-0.0781
GAGATCTA	-0.0829
GGATAGAC	0.0764
AACATGAT	-0.0131
ATATCGCC	0.196
AATCCACT	-0.228
ACGACAAT	-0.129
AAATTCCA	-0.224
AACCGGAC	0.0747
CGCAACGA	0.102
AGTCAGAG	0.00825
GCCATTAA	-0.119
ATCTCTCC	-0.054
AGGCCGGG	0.185
AGGGCAGA	-0.173
ACTTATTC	-0.0973
GCAAGCAA	0.072
CAACATAC	0.0334
GATGTTTA	-0.0295

Study 4
Target: RNA binding protein fox-1 homolog 2, RRM domain, GST-SBP tag (RBFOX2, Homo sapiens, UniProt O43251-10, residues 100-194)
Method: RNA Bind-n-Seq
Form: RNA
Matrix: in vitro
Tested at: 365 nM
Notes: natural RNA segment, single round, ends assumed
Baseline: no-protein control
Direction: higher = stronger binding
All sequences stand within: GGGAGUUCUACAGUCCGACGAUC … UGGAAUUCUCGGGUGCCAA
Target sequence (chain): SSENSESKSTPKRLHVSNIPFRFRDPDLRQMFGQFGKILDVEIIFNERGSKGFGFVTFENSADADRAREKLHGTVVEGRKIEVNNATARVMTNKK
Sequence	RBNS enrichment (R)
GUAGGUGUAAAAGUGUAUUCAAACUCUAGACACGGCUAAUCAGAUUUUAAUUCAAUCAUACACACAUAAUCCUUUGUAAUCAUUUUUCUUUUAAGUGAGGAUAUCUACUG	0.473
GCCUCCCUCCCACCAUCCCAGAAAGGCUCAGGGCAGCCGUGAUCCUCCUAGGGUCACAGUCGGUCAGCUUGGCUGCUCCAUUCUUUCAUAGGCAGGAUUCCUAAUUCCUG	0.334
CGGUGCGGUCGGUGCAGCGUGGCCAAUGCGCGGCGCGCGCGGGGGACAGAGCAGGAGGCGGUCUGUCACCUCGGCCACUGCUGACCUGGGCUGGCCUCCCCCAGCCCUCC	0.325
CCCGAGAACUAUGAUCUUCCUAUCUGUCGCCUUGCCCACAGCUUCAGGAUGCUCUAAGUUGGAGUCAGCCGGGCUCGUUCAUCACUUCUUCGGUUGCUUUGCACCAGUAU	0.769
GUGUUUGACAAUGUUGCAGUUUAAAUGAUAAUGUUUAAAUCAAUUGGUACUUGCCUGUAGUGUUAAACCCUAUUUGUGCCAUUCUCAAGUCCUUUGAUGUGAAUUUUCAG	0.366
AACCUGGGUUAAAGACACCAGCACUUCUGCUUGCUGGGCUGGCUGGACCUGUGAAGCCAUGGGCAGGUAGUGCCCUCUUGAGAGUCAUUUUAUUUGGCCACCUUCAGGUG	0.593
GGGAUUUGUUUGACUUGACUAGGGAACCACAAGUUUUCAUAUAAUGCCUGAUUUAGCCCUGUGCCUAACAGUUUAAAUCUUAAUGCUAAUGUUAAUUGCUUCCCAGUUGG	0.336
CUGGGGAAGCAGAUGACUCUUCCACUGGGGCGGAAGGGGCACCCACUGUGUCCCGAAGGGGCAGUCAAAGUGCAAUAUUAUUGAAACUUCCCUCCCUACACACCCAGUGC	0.516

Some of these lines once more (study 3):
Sequence	E-score
AACATGAT	-0.0131
CGCAACGA	0.102
AACCGGAC	0.0747
ATCTCTCC	-0.054
AAATTCCA	-0.224
AATTTCCG	0.157
CAACATAC	0.0334
GCAAATTA	-0.0781
AGGCCGGG	0.185
GATGTTTA	-0.0295
